# Published values collected from several papers.
# Each numbered part is a random draw from the data of one study; scales do not carry over between parts.
# Chain of UniProt P08588 (whole entry, looked up): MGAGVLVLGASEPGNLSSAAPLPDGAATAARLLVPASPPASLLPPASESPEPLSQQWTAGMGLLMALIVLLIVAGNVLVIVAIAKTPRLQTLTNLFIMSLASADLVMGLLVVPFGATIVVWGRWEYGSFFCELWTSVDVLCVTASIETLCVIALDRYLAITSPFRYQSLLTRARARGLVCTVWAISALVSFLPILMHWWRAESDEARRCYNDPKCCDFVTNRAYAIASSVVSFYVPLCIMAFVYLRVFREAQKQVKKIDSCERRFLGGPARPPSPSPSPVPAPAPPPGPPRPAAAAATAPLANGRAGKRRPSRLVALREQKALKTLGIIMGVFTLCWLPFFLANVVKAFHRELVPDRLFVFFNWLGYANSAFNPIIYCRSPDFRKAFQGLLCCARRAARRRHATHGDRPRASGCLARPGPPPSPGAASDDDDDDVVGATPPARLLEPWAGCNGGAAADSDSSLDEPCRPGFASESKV

# Block 1 — method: protein-binding microarray; molecule type: double-stranded DNA, one strand shown; sample: in vitro; tested at: not given; direction: higher = stronger binding
# Target: TATA-box-binding protein 1 (TBP1, Arabidopsis thaliana, UniProt P28147, residues 1-200, full length assumed)
# Notes: k-mer, scored over probes, only values ≥0.25
# Residues (chain): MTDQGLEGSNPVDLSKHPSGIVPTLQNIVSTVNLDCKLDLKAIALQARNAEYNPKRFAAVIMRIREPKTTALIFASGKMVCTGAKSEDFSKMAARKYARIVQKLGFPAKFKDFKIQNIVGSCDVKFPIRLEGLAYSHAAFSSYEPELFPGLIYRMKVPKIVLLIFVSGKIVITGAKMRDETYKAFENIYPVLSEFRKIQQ
Oligonucleotide,E-score
CTATTAA,0.379
ATATGTA,0.412
ATAAAGA,0.37
GGTTATA,0.415
ACGTATA,0.313
AGTATAA,0.428
AATATTC,0.355
CACTATA,0.299

# Block 2 — method: RNA Bind-n-Seq; molecule type: RNA; sample: in vitro; tested at: 20 nM; notes: 6-mer, flanks averaged, single round; added: 150 mM LiCl; relative to: input library; direction: higher = stronger binding
# Target: TAR DNA-binding protein 43, full length, His tag (TARDBP, Homo sapiens, UniProt Q13148, residues 1-414)
Oligonucleotide,6-mer enrichment (R)
UGGCCC,1.13
GACCCA,0.923
AGAUUG,0.92
GACUGG,1.06
UGAUUC,0.877
CAACUG,0.826
ACCUCC,0.951
UGAGUA,1.09

# Single results of other studies
Structure (SMILES),tested on,test,conditions,scale,measurement,result
Cc1noc2c(NCCc3ccccn3)cc(-c3cccnc3)nc12,"Beta-1 adrenergic receptor (ADRB1, Homo sapiens, UniProt P08588)",antagonist,,,IC50,≥ 100 µM
CCCc1nc(C)c2c(=O)[nH]c(-c3cc(S(=O)(=O)N4CCN(CC)CC4)ccc3OCC)nn12.O=C(O)CC(O)(CC(=O)O)C(=O)O,Sarcocystis neurona,parasite growth,"10 µM, first screen",relative to: untreated,log2 fold change,0.1

# Repeated from above (block 1):
Oligonucleotide,E-score
AATATTC,0.355
